# Measured values from different studies.
# Every numbered part comes from another study and shows a few of its results, in no order.

# Set 1
# Cell line: HEK-293T
# Read-out: pseudovirus infection
# Technique: FDA-approved drug library screen
# Organism: VSV pseudotyped with SARS-CoV-2 spike
# Concentration: 10 µM
# Time: 16 h
# Reference: vehicle-treated
SMILES,GFP-positive cells
COc1ccnc(C[S+]([O-])c2nc3ccc(OC(F)F)cc3[nH]2)c1OC (stereo not shown),77.4%
N#C/C(=C1/SC[C@@H](c2ccc(Cl)cc2Cl)S1)n1ccnc1,79%
Nc1nc2c(c(=O)[nH]1)N(C=O)C(CNc1ccc(C(=O)N[C@@H](CCC(=O)O)C(=O)O)cc1)CN2 (stereo partly shown),99.9%

# Set 2
# Target: Replicase polyprotein 1ab, main protease (rep, Severe acute respiratory syndrome coronavirus 2, UniProt P0DTD1)
# Read-out: enzyme activity
# Action: inhibitor
# Concentration: 20 µM
# Setting: primary screen
SMILES,inhibition
CN1Cc2ccccc2[C@@H]2c3cccc4[nH]cc(c34)C[C@H]21,52.7%
C[C@@H](CN1CC(=O)NC(=O)C1)N1CC(=O)NC(=O)C1,89%
Cc1coc2c1C(=O)C(=O)c1c-2ccc2c(C)cccc12,27%

# Set 3
# Target: Replicase polyprotein 1ab, polymerase (rep, Severe acute respiratory syndrome coronavirus 2, UniProt P0DTD1)
# Read-out: enzyme activity
# Action: inhibitor
# Concentration: 20 µM
SMILES,inhibition
COc1ccc2c(c1)c(CC(=O)N1CCOCC1)c(C)n2C(=O)c1ccc(Cl)cc1,-2.18%
CCn1cc(C(=O)O)c(=O)c2cc(F)c(N3CCNCC3)cc21,16.2%
Cc1noc(NS(=O)(=O)c2ccc(N)cc2)c1C,17.6%
COC(=O)C1=CO[C@@H](O)[C@@H]2C(CO)=CC[C@H]12,-1.82%
CC(=O)NCCCS(=O)(=O)O,-3.43%
Cn1nc(-c2cccc(F)c2)n(C)c1=S,4.65%
CS(=O)(=O)Nc1c(O)ccc2c1CCCC2C1=NCCN1 (stereo not shown),3%
CCCOC(=O)c1ccccc1,0.77%
COc1ccc([C@@H]2CNC(=O)C2)cc1OC1CCCC1,-1.08%
NC(N)=NCCC[C@H](N)C(=O)NCC(=O)N[C@@H](CC(=O)O)C(=O)N[C@@H](CO)C(=O)O,-3.41%
CCc1c(C)[nH]c2c1C(=O)C(CN1CCOCC1)CC2 (stereo not shown),-1.57%
N#C/C(=C\c1cccn1S(=O)(=O)c1cccc([N+](=O)[O-])c1)S(=O)(=O)c1ccc(F)cc1,3.29%
CC(=O)[C@]1(O)Cc2c(O)c3c(c(O)c2[C@@H](O[C@H]2C[C@H](N)[C@H](O)[C@H](C)O2)C1)C(=O)c1ccccc1C3=O,62.7%
O=C(Oc1ccccc1)c1ccccc1O,0.03%
Cc1cccc(Nc2cc(Cl)nc(SCC(=O)O)n2)c1C,2.37%
C[C@@H](N[C@H]1CCCC[C@@H]1NC(=O)c1ccc(Cl)cc1)c1cccc2ccccc12,-1.07%
CCOCCn1c(C2CCN(CCc3ccc(C(C)(C)C(=O)O)cc3)CC2)nc2ccccc21,-10.8%
CCOc1cc(/C=C2/C(=O)N(c3ccccc3)N=C2C)cc(Cl)c1OCC(=O)OC,-1.81%
CC(C)(C)Cn1c(N)nc2ccc(-c3[nH]c(C(C)(C)C)nc3-c3ccc(F)cc3)nc21,-8.83%
COc1ccc2nc3n[nH]c(C)c3c(NCCOCCO)c2c1,7.61%
Cc1ccc(Nc2c(F)cccc2Cl)c(CC(=O)O)c1,1.7%
O=c1ncccn1[C@@H]1O[C@H](CO)[C@@H](O)[C@H]1O,2.37%
CC(C)n1c(=O)n(C(=O)NC2C[C@H]3CC[C@@H](C2)N3C)c2ccccc21 (stereo partly shown),-5.02%
c1ccc(Cn2c(N3CCNCC3)nc3ccccc32)cc1,-4.33%
CCCCCCCC/C=C\CCCCCCCC(=O)OC(CO)CO,2.19%

# Set 4
# Target: Interferon regulatory factor 7, full length, phosphomimetic (IRF7, Homo sapiens, UniProt Q92985, residues 1-503, S471D/S472D/S475D/S476D/S477D/S483D/S484D/S487D)
# UniProt Q92985, sequence (whole entry, unmodified, looked up): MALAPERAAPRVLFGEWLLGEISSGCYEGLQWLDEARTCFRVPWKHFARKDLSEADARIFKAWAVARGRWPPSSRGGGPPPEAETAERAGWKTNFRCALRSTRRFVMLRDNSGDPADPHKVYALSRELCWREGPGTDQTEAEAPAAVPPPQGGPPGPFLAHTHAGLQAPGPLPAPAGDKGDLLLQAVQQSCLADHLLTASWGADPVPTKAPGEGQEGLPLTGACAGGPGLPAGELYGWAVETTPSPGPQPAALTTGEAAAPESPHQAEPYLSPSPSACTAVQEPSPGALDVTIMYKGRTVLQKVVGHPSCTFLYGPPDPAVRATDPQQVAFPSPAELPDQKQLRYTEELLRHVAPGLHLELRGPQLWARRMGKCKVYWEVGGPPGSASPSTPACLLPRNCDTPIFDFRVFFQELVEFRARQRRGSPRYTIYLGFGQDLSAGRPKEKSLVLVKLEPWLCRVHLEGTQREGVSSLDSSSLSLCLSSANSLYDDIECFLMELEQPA
# Technique: protein-binding microarray
# Molecule type: double-stranded DNA, one strand shown
# Medium: in vitro
# Concentration: 2200 nM top
# Setting: 60-bp whole probe
# Together with: salmon DNA 0.4 mg/ml
# Reference: random background probes
# Direction: higher = stronger binding
# All sequences stand within: GCCTAGCAC … GTCTTGATTCGCTTGACGCTGCTG
Oligonucleotide,fitted relative affinity
TTAGAACTCGGGTATCGATTAGTGCTA,0.414 z-score
TTAGGTTTCGAATTTCGGTTAGTGCTA,5.96 z-score
ACAACTAGGGAATTTAGAAAAGTGCTA,-1.26 z-score
TTAGGTATCCTTCTCGTTTAGTGCTAG,1.27 z-score
TTAGGTTTCCTTTTCTTTTAGTGCTAG,4.27 z-score
ACTAGTTTTCATTTTCTGAAGTGCTAG,5.07 z-score
AAGCCAGGACGAGCTCGCCTGTGCTAG,-0.253 z-score
TCAATACTCTTCCATGGAACTGTGCTA,0.642 z-score

# Set 5
# Target: RNA binding protein fox-1 homolog 2, RRM domain, GST-SBP tag (RBFOX2, Homo sapiens, UniProt O43251-10, residues 100-194)
# Technique: RNA Bind-n-Seq
# Molecule type: RNA
# Medium: in vitro
# Concentration: 365 nM
# Setting: natural RNA segment, single round, ends assumed
# Reference: no-protein control
# Direction: higher = stronger binding
# All sequences stand within: GGGAGUUCUACAGUCCGACGAUC … UGGAAUUCUCGGGUGCCAA
# Target sequence (chain): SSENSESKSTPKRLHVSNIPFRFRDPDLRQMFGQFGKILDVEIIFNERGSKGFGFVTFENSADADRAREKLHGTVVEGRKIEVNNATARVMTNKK
Oligonucleotide,RBNS enrichment (R)
CCCCUUUCUUUCUUUUUUUUAAUUAAAGAGCAAAACUUUUUAUUACUUUGUAAUUUAAAAAACUGAAAAAAAAAUUACUGAAGAACUUUGGGGGGAAUUUUGUACUUUUU,1.08
GCUUGUAUAUAUAUUUUUAAAAAUCUACCUGUUCCUGACUUAAAACAAAAGGAAAGAAACUACCUUUUUAUAAUGCACAACUGUUGAUGGUAGGCUGUAUAGUUUUUAGU,0.923
UUGGAGGCCGCUGGCCUGUGCUCUGGUGCAGAUGCUCUUACCCAGCUUCACUCAGGACCACCUUGGGGUGUAACAGAGGGUGUCAUCCGGCCCCUGGCCCUGGGGAACAU,0.27
UCCAUGUUGGGAGAUGUUGGGGUAAGCAAUGGAGGCUAUAUCCUCAAGAGCUGUCACAGACAAGUGGCAGAAUACAGGCACCAUGAGCUCAGGUUCUGACAAGGUGCAAA,0.502
CCUUGCUGCAAACCCAUGAAGCUGGCCCUCAGCUCCCUGACCCCCUGUCCUAGGUCAUGAAGGACACUCUGCAGGGUGAAGCACCAGGGAGAGGCCUCGGCUGUCUCCUG,0.452
AGUGUCUUUCUUUUCUCUUUCUAGCUGAAUAGUUCUAUUUCAAAUGUUCCCUUAAAACUCAGACUUCAACACAUCAGUUAAAUUUGUACUUUAGUUGUGGGUGUUAGAGU,0.684
CUGCUCACACCUGGUCCCCUAGCCUUUUCUCUUGGGCAGUGUAGUAGUAUGGGCGAGCCACCCUCAGCUCUUUUAUUGGCCGGGGCUAUAAACCAUGGCUGGGCAUAACU,0.264
UACAACUUCAAGUGCAUGCUCUCUGCAGCCAGCCCAGCCCAGCUGGUGGGAAGCGUCUGUCCGUUUACUCCAAGGUGGGGUCUUUGUGAGAGUGAGCUGUAGGUGUGCGG,7.03

# Set 6
# Target: Centromere-binding protein 1, full length, N-terminal tag (CBF1, Saccharomyces cerevisiae, UniProt P17106, residues 1-351)
# UniProt P17106, sequence (whole entry, looked up): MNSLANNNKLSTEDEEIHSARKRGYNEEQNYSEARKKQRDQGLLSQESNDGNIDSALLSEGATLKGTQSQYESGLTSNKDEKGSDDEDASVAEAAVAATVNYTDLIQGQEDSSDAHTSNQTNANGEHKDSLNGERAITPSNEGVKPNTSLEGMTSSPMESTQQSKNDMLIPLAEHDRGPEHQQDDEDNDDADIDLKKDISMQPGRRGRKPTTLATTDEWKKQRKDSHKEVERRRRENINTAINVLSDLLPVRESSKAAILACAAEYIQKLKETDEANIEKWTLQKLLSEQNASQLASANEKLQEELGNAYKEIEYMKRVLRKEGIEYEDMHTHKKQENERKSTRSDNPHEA
# Technique: protein-binding microarray
# Molecule type: double-stranded DNA, one strand shown
# Medium: in vitro
# Concentration: 0.8 µM
# Setting: whole 60-bp probe, no competitor
# Direction: higher = stronger binding
# All sequences stand within: … GTCTTGATTCGCTTGACGCTGCTG
Oligonucleotide,fluorescence intensity [a.u.]
TGTACGAAGCTATATCACGTTTTTATAGTAGTTAGG,1500
CTATTAATTTAATGTCACCATATTATAAAAATATTC,720
CTAGCACTTCGTAGATTCATCATGTTCTATACGTTC,528
CTAAAATGAGTCACGCACGCACAATCACGATTGTTC,2360
GAAAAATTATCGAAGCACGGGTATAGTTAATTGTAG,850
GAAATTGATTTCAATCACGCTTTAAAGTTTTTTTAG,808
CTAGGTTACTATTGTAGTCTGGTGAGTTAATACTTC,530
GAATGGATACTGCATCACCAAAAGGACCGCCGCTAG,485
